Assay results gathered from unrelated publications.
Every numbered part comes from another study and shows a few of its results, in no order. Changes are numbered by the printed parent chain.

Set 1 — technique: aptamer microarray, sandwich; molecule type: DNA with 2'F-ANA; sample: in vitro; tested at: 200 nM; with: Cy3 exosite-II aptamer, 400 nM; direction: higher = stronger binding; strand: GGTTGGTGTGGTTGG
Target: Prothrombin, mature alpha-thrombin (F2, Homo sapiens, UniProt P00734)
Notes: whole 15-mer aptamer, many near background
`2'F-ANA at 1 5 6 7 8 14` — result for “mean fluorescence intensity”: 45.3 a.u.
`2'F-ANA at 3 5 6 7 8 11`: “mean fluorescence intensity” 113 a.u.
For `2'F-ANA at 1 2 6 10 13`, “mean fluorescence intensity” read 50.2 a.u.
`2'F-ANA at 3 4 6 9 12 13 15`: “mean fluorescence intensity” 500 a.u.
For `2'F-ANA at 1 2 7 10 13 14 15`, “mean fluorescence intensity” read 47 a.u.
Under “mean fluorescence intensity”, `2'F-ANA at 1 3 4 5 6 7 8 10 13` is recorded as 46.1 a.u.
`2'F-ANA at 1 6 7 9 12 13 14 15` — result for “mean fluorescence intensity”: 63.8 a.u.
`2'F-ANA at 3 4 7 8 9 15`: “mean fluorescence intensity” 796 a.u.
`2'F-ANA at 3 4 5 6 8 10 12 13 14 15` — result for “mean fluorescence intensity”: 57.2 a.u.
`2'F-ANA at 1 4 7 8 12 15` — result for “mean fluorescence intensity”: 419 a.u.
`2'F-ANA at 1 3 4 5 7 12 15`: “mean fluorescence intensity” 108 a.u.
Under “mean fluorescence intensity”, `2'F-ANA at 1 4 6 8 12 13` is recorded as 217 a.u.
`2'F-ANA at 1 2 3 5 6 7 9 11 12 14`: “mean fluorescence intensity” 47 a.u.
`2'F-ANA at 3 4 5 7 8 9 10 12 14`: “mean fluorescence intensity” 61.7 a.u.
Under “mean fluorescence intensity”, `2'F-ANA at 5 6 7 8 9 10 12 13` is recorded as 50.3 a.u.
`2'F-ANA at 1 2 8 9 11 12 13 15`: “mean fluorescence intensity” 261 a.u.
`2'F-ANA at 4 5 6 13 15` — result for “mean fluorescence intensity”: 49.1 a.u.
For `2'F-ANA at 7 8 9 13 14`, “mean fluorescence intensity” read 191 a.u.
`2'F-ANA at 1 2 5 6 7 10 14` — result for “mean fluorescence intensity”: 45.7 a.u.
`2'F-ANA at 2 3 9 12` — result for “mean fluorescence intensity”: 1120 a.u.
Under “mean fluorescence intensity”, `2'F-ANA at 2 4 5 6 7 9 10 11 13 15` is recorded as 61.1 a.u.

Set 2 — technique: protein binding microarray; molecule type: double-stranded DNA, one strand shown; sample: in vitro; tested at: not given; reference: not given; direction: higher = stronger binding
Target: Histone acetyltransferase KAT6A, winged helix 1, GST fusion (KAT6A, Homo sapiens, UniProt Q92794, residues 1-85)
Notes: 8-mer, flanks averaged, mean of 2 arrays, mostly near background
Target sequence (chain): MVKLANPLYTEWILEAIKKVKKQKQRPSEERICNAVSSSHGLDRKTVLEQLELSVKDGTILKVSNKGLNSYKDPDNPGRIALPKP
The E-score of `AATTGTGA` is reported as -0.174.
`ATATGGTA` has an E-score of -0.149.
With `TCGCCGCA` the E-score was 0.334.
`GGCATTAA` has an E-score of -0.0585.
`CGTTAGGA` has an E-score of 0.0687.
`AGCATTCA` gave an E-score of -0.254.
The E-score of `GTCGAAAA` is reported as -0.0912.
The E-score of `AAGCTGGA` is reported as -0.138.
`AAACGGAG` gave an E-score of 0.136.
With `CCAATGAG` the E-score was -0.111.
The E-score of `AGCTTAGG` is reported as -0.11.
`ACATCTGA` gave an E-score of -0.0627.
For `AGTAGCCG`, the E-score was 0.263.
With `CGGGTTTA` the E-score was 0.315.
The E-score of `CCTACTCC` is reported as -0.238.
For `CTGGTTCC`, the E-score was -0.0863.
The E-score of `TCCGACCA` is reported as 0.088.
The E-score of `AAGACCGA` is reported as 0.0979.

Set 3 — technique: protein-binding microarray; molecule type: double-stranded DNA, one strand shown; sample: in vitro; tested at: 2200 nM top; notes: 60-bp whole probe; with: salmon DNA 0.4 mg/ml; reference: random background probes; direction: higher = stronger binding; all sequences stand within: GCCTAGCAC … GTCTTGATTCGCTTGACGCTGCTG
Target: Interferon regulatory factor 7, full length, phosphomimetic (IRF7, Homo sapiens, UniProt Q92985, residues 1-503, S471D/S472D/S475D/S476D/S477D/S483D/S484D/S487D)
Construct (chain): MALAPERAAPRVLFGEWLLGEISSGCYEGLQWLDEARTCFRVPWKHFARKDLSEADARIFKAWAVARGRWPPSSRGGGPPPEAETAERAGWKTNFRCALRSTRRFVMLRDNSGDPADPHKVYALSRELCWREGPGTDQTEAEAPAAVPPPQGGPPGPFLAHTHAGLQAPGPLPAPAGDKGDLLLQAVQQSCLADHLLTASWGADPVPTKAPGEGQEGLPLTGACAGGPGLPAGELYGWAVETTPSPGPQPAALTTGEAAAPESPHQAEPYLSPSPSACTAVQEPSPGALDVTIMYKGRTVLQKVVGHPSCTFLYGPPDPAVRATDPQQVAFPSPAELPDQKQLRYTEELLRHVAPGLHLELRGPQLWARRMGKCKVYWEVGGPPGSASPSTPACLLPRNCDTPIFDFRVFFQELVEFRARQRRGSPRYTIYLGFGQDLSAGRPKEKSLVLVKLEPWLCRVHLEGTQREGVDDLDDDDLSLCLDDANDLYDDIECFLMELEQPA
`TCACTTCTGCCTGTCCAACTGTGCTAG` — result for “fitted relative affinity”: 2.13 z-score.
For `GACGGTTTCGGTACCGGGACGTGCTAG`, “fitted relative affinity” read 4.99 z-score.
Under “fitted relative affinity”, `CCTCCTCCCTGTTTCCATCTGTGCTAG` is recorded as 2.17 z-score.
`GACGAACTGGGGTATCAAGACGTGCTA`: “fitted relative affinity” -0.166 z-score.
Under “fitted relative affinity”, `CCAGAGTCCTGTTTGATAATGTGCTAG` is recorded as 1.15 z-score.
`TATGGTATTTTTTTGTAATCGTGCTAG` — result for “fitted relative affinity”: 0.974 z-score.
`TTAGGTTTCGGTATCGTTTAGTGCTAG` — result for “fitted relative affinity”: 7.3 z-score.
Under “fitted relative affinity”, `TCATTCTTGGGACTCACACTGTGCTAG` is recorded as 1.01 z-score.
For `TCATATTTATTTTTACAACTGTGCTAG`, “fitted relative affinity” read 0.928 z-score.
`TGAGATTTCAGTTCCGATTAGTGCTAG` — result for “fitted relative affinity”: 1.77 z-score.
Under “fitted relative affinity”, `TTAGGTCTCGGACTGGGTTGGTGCTAG` is recorded as -0.341 z-score.
`TCAAAGCTTCCTCTCTGACTGTGCTAG`: “fitted relative affinity” 0.743 z-score.
For `TGGCTTTCCTTTATGTCCTGGTGCTAG`, “fitted relative affinity” read 1.67 z-score.
Under “fitted relative affinity”, `AAGACTTTGCTCTGTGCGTAGGTGCTA` is recorded as -0.27 z-score.
`ATAGGTCTCGGTCTCGGTTAGTGCTAG`: “fitted relative affinity” 1.07 z-score.
Under “fitted relative affinity”, `TTAGGTATCGGGTTTCGGGTAGTGCTA` is recorded as 2.62 z-score.
`GACGCTATCGACACTGGGGACGTGCTA` — result for “fitted relative affinity”: 0.05 z-score.
`GAAGGTCTCCTTTTCCTGACGTGCTAG`: “fitted relative affinity” 1.28 z-score.
`GACGGTTTTGACTTTCGGGACGTGCTA`: “fitted relative affinity” 4.18 z-score.

Set 4 — technique: DHFR PCA, deep sequencing; sample: yeast; with: (+)-ABA 17 µM; reference: wild-type fitted maximum; direction: higher = stronger binding
Target: ABI1, truncated, D143A, DHFR fusion (Arabidopsis thaliana)
Notes: methotrexate growth selection, single substitutions
Parent: PYL1, truncated, DHFR fusion (Arabidopsis thaliana); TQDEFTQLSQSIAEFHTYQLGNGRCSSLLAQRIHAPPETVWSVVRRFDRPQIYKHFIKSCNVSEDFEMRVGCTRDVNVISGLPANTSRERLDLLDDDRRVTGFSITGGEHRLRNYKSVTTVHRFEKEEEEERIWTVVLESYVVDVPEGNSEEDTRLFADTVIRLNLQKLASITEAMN
`G148T` — result for “relative binding score”: 54.1%.
Under “relative binding score”, `I57R` is recorded as -1.57%.
`F157S`: “relative binding score” -0.0364%.
For `T73S`, “relative binding score” read 74%.
`T160V` — result for “relative binding score”: 42.8%.
`E128S` — result for “relative binding score”: 89.6%.
`Q167E`: “relative binding score” 78.3%.
`S80F`: “relative binding score” 27.3%.
`F47W`: “relative binding score” 40.8%.
`C60I` — result for “relative binding score”: 48.6%.
`P37F` — result for “relative binding score”: 10%.
`T86Q` — result for “relative binding score”: 52.5%.
For `T173I`, “relative binding score” read 71.1%.
Under “relative binding score”, `E14R` is recorded as 65.8%.
Under “relative binding score”, `E130D` is recorded as 92.2%.

Some of these lines once more (set 1):
Under “mean fluorescence intensity”, `2'F-ANA at 5 6 7 8 9 10 12 13` is recorded as 50.3 a.u.
`2'F-ANA at 1 2 8 9 11 12 13 15`: “mean fluorescence intensity” 261 a.u.
`2'F-ANA at 4 5 6 13 15` — result for “mean fluorescence intensity”: 49.1 a.u.
For `2'F-ANA at 7 8 9 13 14`, “mean fluorescence intensity” read 191 a.u.
